Published values of several laboratories.
Compare with care: the assays were run in different laboratories. Numbers after ± are the reported error.

Cc1cc(NC2CCN(C(=O)OC3CCN(C(=O)/C=C/CN(C)C)C3)CC2)n2ncc(C(C)C)c2n1 (stereo not shown) — patients with adverse event (Phase I dose escalation CTCAE v4.0, item: ALT increased; patients with advanced solid tumours; dose not given, QD dosing any grade): 16%
OC[C@H]1O[C@@H](c2ccc(F)c(Cc3cc4ccccc4s3)c2)[C@H](O)[C@@H](O)[C@@H]1O — hypoglycaemia-related adverse event (Japanese patients, type 1 diabetes; oral, 50 mg/day, onset day 4; baseline: patients): 6%
CC(=O)c1ccc([C@H]2C[C@@]3(C)[C@@H](CC[C@@]3(O)C(F)(F)C(F)(F)F)[C@@H]3CCC4=CC(=O)CCC4=C32)cc1 — serum concentration (human, pooled serum; oral, 200 mg, day 1, 8 h): 9.4 ng/mL
O=S(=O)(NCCSc1ccccn1)c1ccc(Br)cc1 — logP (octanol/buffer; pH 11, known kinase inactives set): 2.85
CC(C)C[C@H](NC(=O)[C@H](CCC1CCCCC1)NC(=O)[C@@H]1C[C@H](C)CN1C(=O)c1ccc(F)cc1)C(=O)NC(C)(C)C(=O)N[C@@H](CC(C)C)C(=O)N[C@@H](CC(C)C)C(=O)NC(C)(C)C(=O)NC(C)(C)C(=O)NCCC(=O)N[C@@H](C)CN(C)C — alpha-helix content (circular dichroism; phosphate buffer; pH 7.4, 20 °C): 88.9%
C[C@@H](O)[C@H](NC(=O)c1ccc(-c2ccc(Br)cc2)cc1)C(=O)NO — logP (octanol/buffer; pH 11): 0.91
CC[C@H](C)[C@H](NC(=O)[C@H](Cc1ccccc1)NC(=O)[C@H](CCC(=O)O)NC(=O)[C@H](CCCCNC(=O)COCCOCCNC(=O)COCCOCCNC(=O)CC[C@H](NC(=O)CCCCCCCCCCCCCCCCC(=O)O)C(=O)O)NC(=O)[C@H](C)NC(=O)[C@H](C)NC(=O)[C@H](CCC(N)=O)NC(=O)CNC(=O)[C@H](CCC(=O)O)NC(=O)[C@H](CC(C)C)NC(=O)[C@H](Cc1ccc(O)cc1)NC(=O)[C@H](CO)NC(=O)[C@H](CO)NC(=O)[C@@H](NC(=O)[C@H](CC(=O)O)NC(=O)[C@H](CO)NC(=O)[C@@H](NC(=O)[C@H](Cc1ccccc1)NC(=O)[C@@H](NC(=O)CNC(=O)[C@H](CCC(=O)O)NC(=O)C(C)(C)NC(=O)[C@@H](N)Cc1cnc[nH]1)[C@@H](C)O)[C@@H](C)O)C(C)C)C(=O)N[C@@H](C)C(=O)N[C@@H](Cc1c[nH]c2ccccc12)C(=O)N[C@@H](CC(C)C)C(=O)N[C@H](C(=O)N[C@@H](CCCNC(=N)N)C(=O)NCC(=O)N[C@@H](CCCNC(=N)N)C(=O)NCC(=O)O)C(C)C — dose-normalised Cmax (LC-MS/MS; Chinese patients with type 2 diabetes, plasma; subcutaneous, single dose 0.114 mg, least-squares mean): 24 nmol/L/mg
NC1(C(=O)N[C@@H](CCO)c2ccc(Cl)cc2)CCN(c2nc[nH]c3nccc2-3)CC1 — incidence of Leukopenia (metastatic CRPC patients; 320 mg b.i.d., grade 3 to 4, treatment-related, with: enzalutamide 160 mg daily): 0%
CCN1/C(=C/C(C)=O)Sc2ccc(F)cc21 — QTc interval change (cynomolgus monkey; oral, 30 mg/kg, 24 h post-dose; baseline: pre-dose): 99.8 ± 3.2%
O=C(O)[C@H]1O[C@@H](Oc2cc(O)cc(/C=C/c3ccc(O)cc3)c2)[C@H](O)[C@@H](O)[C@@H]1O — CSF concentration (human, cerebrospinal fluid; dose not given, mean): not detected
CC(C)(C)c1ccc(O)c(CN(Cc2cc(C(C)(C)C)ccc2O)C2CCC(NC(N)=O)CC2)c1 (stereo not shown) — Cmax fold increase (C57BL/6 mice, male, brain; intraperitoneal, 25 mg/kg; baseline: 5 mg/kg dose): 2.6 fold
O=C(Nc1nc2cccc(-c3ccc(CN4CCS(=O)(=O)CC4)cc3)n2n1)C1CC1 — treatment-emergent adverse events (item: constipation; human rheumatoid arthritis patients; oral, 200 mg once daily, 4 weeks, regardless of relatedness): 0%
C=CCN1CC(=O)N2[C@@H](Cc3ccc(O)cc3F)C(=O)N(Cc3cccc(N4CC(N5CCN(CC)CC5)C4)n3)C[C@@H]2N1C(=O)NCc1ccccc1 — treatment-related nausea (advanced solid tumour patients; oral, 15 mg twice daily, grade ≥3, dose-escalation): 0%
CCO[C@H]1CCN(Cc2c(OC)cc(C)c3[nH]ccc23)[C@H](c2ccc(C(=O)O)cc2)C1 — incidence of nasopharyngitis (PNH patients, active haemolysis; oral, 100 mg, 8 weeks, treatment): 0%
CCN1CCN(Cc2ccc(Nc3ncc(F)c(-c4cc(F)c5nc6n(c5c4)[C@H](C)CCC6)n3)nc2)CC1 — Tmax (human, plasma; 50 mg multiple dosing, median): 4 h
COc1ccc2[nH]c([S+]([O-])Cc3ncc(C)c(OC)c3C)nc2c1 (stereo not shown) — AUC(0-t) (healthy Chinese volunteers CYP2C19 IM, plasma; oral, 20 mg single dose, fasted): 878 ± 548 ng·h/mL
NC[C@H](NC(=O)c1ccc(-c2ccc(Br)cc2)cc1)C(=O)NO — logP (octanol/buffer; pH 11): 0.95
COc1ncc(-c2nc3c(n2C(C)C)[C@H](c2ccc(Cl)cc2)N(c2cc(Cl)cn(C)c2=O)C3=O)c(OC)n1 — AUC(0-t) geometric mean (human patients, plasma; oral, 350 mg, 0-24 h, high-dose arm, cycle 2 day 1): 37800 ng·h/mL
CN[C@H]1C(=O)N[C@@H]2Cc3ccc(cc3)Oc3cc4cc(c3O[C@@H]3O[C@H](C(=O)O)[C@@H](O)[C@H](O)[C@H]3NC(=O)CCCCCCCCC(C)C)Oc3ccc(cc3Cl)[C@@H](O)[C@@H]3NC(=O)[C@H](NC(=O)[C@@H]4NC(=O)[C@@H](NC2=O)c2cc(cc(O)c2Cl)Oc2cc1ccc2O)c1ccc(O)c(c1)-c1c(O[C@H]2O[C@H](CO)[C@@H](O)[C@H](O)[C@@H]2O)cc(O)cc1[C@@H](C(=O)NCCCN(C)C)NC3=O — second peripheral volume (population PK model; paediatric patients; dose not given, reference weight 70 kg): 5.57 L
